Measured values of several laboratories.
A part holds a random share of what one study measured. Substitutions count along the parent as printed.

Set 1
Target: Histone acetyltransferase KAT6A, winged helix 2, GST fusion (KAT6A, Homo sapiens, UniProt Q92794, residues 85-181)
Method: protein binding microarray
Form: double-stranded DNA, one strand shown
Matrix: in vitro
Tested at: not given
Setting: 8-mer, flanks averaged, mean of 2 arrays, mostly near background
Baseline: not given
Reading: higher = stronger binding
Residues (chain): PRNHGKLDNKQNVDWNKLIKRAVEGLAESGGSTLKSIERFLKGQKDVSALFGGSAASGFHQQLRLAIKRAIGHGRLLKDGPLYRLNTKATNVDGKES
Strand	E-score
AATGCACG	-0.002
GAAACGCA	0.0248
TGTGATAA	0.126
CAGGTTGC	-0.0102
AGGCTGTG	0.0386
GACTCCCC	-0.0611
CGAACGCG	0.152
GTGCTCAA	0.0549
ATTCGGCC	0.103
AACTGTTC	0.0439
AACTATGT	-0.154
ACCAAAAC	-0.043
TATTAACA	0.165
AAACAGGA	0.0038
GAATGCCC	-0.0825
CAACGTCG	-0.0621
AAAGATCA	0.0747
CAGTACTC	-0.184
AGCGTTGG	-0.0849
ACAAATGC	0.036
CAGAAAGG	0.0571
TGCAAGCA	0.0133
AAACAGAA	0.165

Set 2
Target: ABI1, truncated, D143A, DHFR fusion (Arabidopsis thaliana)
Method: DHFR PCA, deep sequencing
Matrix: yeast
Setting: methotrexate growth selection, single substitutions
With: (+)-ABA 0.0091 µM
Baseline: wild-type fitted maximum
Reading: higher = stronger binding
Parent: PYL1, truncated, DHFR fusion (Arabidopsis thaliana); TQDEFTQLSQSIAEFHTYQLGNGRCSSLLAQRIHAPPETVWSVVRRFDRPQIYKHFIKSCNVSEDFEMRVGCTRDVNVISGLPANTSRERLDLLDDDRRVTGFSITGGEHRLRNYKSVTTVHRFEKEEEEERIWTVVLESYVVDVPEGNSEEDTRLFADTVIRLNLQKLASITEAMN
Change	relative binding score
V142K	-0.414%
S87L	34.1%
T86P	5.67%
D96C	-5.34%
A13E	40%
K168E	-3.88%
P146Y	-0.535%
F66K	-11.8%
S63H	7.27%
T101C	24.7%
E129P	54.8%
G108Y	-4.72%
V161A	3.88%
R24C	21.2%

Set 3
Target: Interferon regulatory factor 3, full length, phosphomimetic (IRF3, Homo sapiens, UniProt Q14653, residues 1-427, S386D/S396D/S398D/S402D/T404D/S405D)
UniProt Q14653, sequence (whole entry, unmodified, looked up): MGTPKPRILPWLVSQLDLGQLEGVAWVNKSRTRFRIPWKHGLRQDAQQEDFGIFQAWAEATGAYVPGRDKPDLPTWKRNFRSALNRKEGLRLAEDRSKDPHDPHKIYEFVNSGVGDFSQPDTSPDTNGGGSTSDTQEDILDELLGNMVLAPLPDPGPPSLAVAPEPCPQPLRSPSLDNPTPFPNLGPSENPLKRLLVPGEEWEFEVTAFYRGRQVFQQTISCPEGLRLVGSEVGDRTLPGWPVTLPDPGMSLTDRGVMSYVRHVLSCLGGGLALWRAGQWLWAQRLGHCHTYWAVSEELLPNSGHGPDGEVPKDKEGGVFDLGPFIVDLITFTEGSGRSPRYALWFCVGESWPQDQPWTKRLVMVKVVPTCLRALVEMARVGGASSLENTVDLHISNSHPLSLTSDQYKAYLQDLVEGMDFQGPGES
Method: protein-binding microarray
Form: double-stranded DNA, one strand shown
Matrix: in vitro
Tested at: 2540 nM top
Setting: 60-bp whole probe
With: salmon DNA 0.4 mg/ml
Baseline: random background probes
Reading: higher = stronger binding
All sequences stand within: GCCTAGCAC … GTCTTGATTCGCTTGACGCTGCTG
Strand	fitted relative affinity
TTAGGTCTCCTTTTCCTGTAGTGCTAG	4.58 z-score
ACTAATTTTCATTTTCCAAAGTGCTAG	4.61 z-score
GCCGGTATCCTTATCCTGACGTGCTAG	5.39 z-score
CAGCCTCTACCTCCTGGGCTCGTGCTA	-0.203 z-score
TCACCCCTCTAGGTTCTCACTGTGCTA	0.25 z-score
GCGGGAGAAAGCAAGCCCAGGTGCTAG	-0.832 z-score
CTTCCTCTTTCACTGGTCCTGTGCTAG	2.54 z-score
GACGTACTGGGACTGGGGACGTGCTAG	-0.591 z-score
GACGAACTGAGTCTCGCGACGTGCTAG	-0.363 z-score
CTGAGTCCCTATCTCCTCACGTGCTAG	0.911 z-score
TTAGATTCCAGACTGGATTAGTGCTAG	2.52 z-score
GACGATCTCAGTCCCGAGACGTGCTAG	0.287 z-score
TTAGGTTTCCTTCTCCTTTGGTGCTAG	9.97 z-score
CCAGGCTGAAAGACCTCTGAGTGCTAG	-0.718 z-score
GACGGTATCGACACTTGGGACGTGCTA	0.471 z-score
GGGATAAGGACAGACACCATGTGCTAG	-0.17 z-score
TCATCCCTCGGGTTGCGGACTGTGCTA	0.0985 z-score
TTAGGAATCGGGACTGGGTTAGTGCTA	-0.478 z-score
CATTTTAGTAGTTTCTAAAAGTGCTAG	3.17 z-score
TTTTGCTTTCCTTTATGTACGTGCTAG	7.9 z-score
GACGATATCAGACTGCAGACGTGCTAG	0.253 z-score
GACGGTTTCGACTTTAGGGACGTGCTA	3.76 z-score
TTAGATCTCAGAGTGGATTAGTGCTAG	-0.333 z-score
ATTTTTTTTTTCATCATTGCGTGCTAG	1.35 z-score

Set 4
Target: Sal-like protein 4, full length isoform A (SALL4, Homo sapiens, UniProt Q9UJQ4, residues 1-1053)
UniProt Q9UJQ4, sequence (whole entry, looked up): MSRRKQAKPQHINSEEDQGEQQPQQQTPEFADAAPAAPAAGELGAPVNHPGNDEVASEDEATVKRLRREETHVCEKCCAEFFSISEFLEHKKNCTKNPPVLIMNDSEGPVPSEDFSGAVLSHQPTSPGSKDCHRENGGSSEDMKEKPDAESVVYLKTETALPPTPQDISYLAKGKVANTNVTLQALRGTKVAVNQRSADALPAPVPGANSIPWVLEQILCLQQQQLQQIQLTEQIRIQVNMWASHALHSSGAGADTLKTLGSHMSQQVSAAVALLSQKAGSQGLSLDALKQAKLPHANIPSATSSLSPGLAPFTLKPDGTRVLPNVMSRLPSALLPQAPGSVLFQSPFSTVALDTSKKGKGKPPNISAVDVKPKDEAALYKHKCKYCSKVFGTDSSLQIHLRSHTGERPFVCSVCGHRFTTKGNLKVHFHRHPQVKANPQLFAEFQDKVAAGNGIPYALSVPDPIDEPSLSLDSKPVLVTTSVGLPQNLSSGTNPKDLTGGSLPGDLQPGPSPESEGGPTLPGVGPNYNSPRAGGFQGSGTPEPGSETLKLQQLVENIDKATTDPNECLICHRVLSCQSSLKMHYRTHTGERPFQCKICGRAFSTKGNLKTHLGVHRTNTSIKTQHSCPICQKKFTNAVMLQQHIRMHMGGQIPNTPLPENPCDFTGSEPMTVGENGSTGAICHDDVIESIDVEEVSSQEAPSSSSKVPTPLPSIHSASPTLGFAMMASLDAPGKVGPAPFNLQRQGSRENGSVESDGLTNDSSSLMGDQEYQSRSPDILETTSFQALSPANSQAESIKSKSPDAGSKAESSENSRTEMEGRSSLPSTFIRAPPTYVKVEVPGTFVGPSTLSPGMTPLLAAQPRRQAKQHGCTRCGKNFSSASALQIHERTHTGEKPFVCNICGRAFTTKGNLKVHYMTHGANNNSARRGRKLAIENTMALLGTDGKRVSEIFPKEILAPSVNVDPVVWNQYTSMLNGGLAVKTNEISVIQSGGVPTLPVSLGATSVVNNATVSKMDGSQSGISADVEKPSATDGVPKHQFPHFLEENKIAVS
Method: universal PBM
Form: double-stranded DNA, one strand shown
Matrix: in vitro
Tested at: 600 nM
Setting: 8-mer, flanks averaged, mean of replicates
Reading: higher = stronger binding
Strand	E-score
ACGCGGAG	-0.24
ATTTTGAA	0.332
CGCCCACA	-0.14
CGACGCGA	-0.303
ACCACTCT	-0.2
ATTGTCCA	0.145
CATGCGCA	0.025
AGACTCGC	-0.22
TACTACAA	0.287
AACCCACA	0.0895
AGCCTGTA	0.0432
AGGAAGGA	0.0777
GAGCCTAC	-0.184
CTGCTGAA	-0.0413
GCACCCCC	-0.36
CAAACCTG	-0.0245
CCTTATAA	0.258
ACTCTTTG	0.101

Set 5
Target: Phosphate system positive regulatory protein PHO4, full length, GST-tagged (PHO4, Saccharomyces cerevisiae, UniProt P07270, residues 1-312)
Method: competition protein-binding microarray
Form: double-stranded DNA, one strand shown
Matrix: in vitro
Tested at: 2 µM
Setting: whole 60-bp probe, lowest competitor level
With: Cbf1 competitor, 0.05 µM
Reading: higher = stronger binding
Target sequence (chain): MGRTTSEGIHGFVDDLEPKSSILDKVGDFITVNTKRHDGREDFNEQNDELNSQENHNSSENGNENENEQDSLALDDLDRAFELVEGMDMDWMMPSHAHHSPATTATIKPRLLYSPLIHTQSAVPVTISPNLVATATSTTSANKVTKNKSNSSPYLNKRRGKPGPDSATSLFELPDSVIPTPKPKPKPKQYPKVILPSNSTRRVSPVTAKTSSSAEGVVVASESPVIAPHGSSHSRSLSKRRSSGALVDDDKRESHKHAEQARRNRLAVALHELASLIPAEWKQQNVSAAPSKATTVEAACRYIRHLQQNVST
Strand	fluorescence intensity
TCCTGTATTTTAAAGCACGCAAGGCTGAAATAAACGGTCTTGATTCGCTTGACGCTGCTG	8290 a.u.
CTAACGAAGGTTTGACAGGTGGGTGACAAGCCAAGTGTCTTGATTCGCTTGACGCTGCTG	5680 a.u.
TCTAACCAATTGTTCCCCGTGAGATGCTTTCTCTGAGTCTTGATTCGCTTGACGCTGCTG	5060 a.u.
TTTTTAGTAGTTTGTCATGCTGTATTAATGATTTTCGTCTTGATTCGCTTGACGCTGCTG	4610 a.u.
AGTAAAAGCCACCTTTCCGTGGGTAATCCGCTGAAAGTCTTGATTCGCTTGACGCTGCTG	4080 a.u.
CGTCCCCCACCATGTCGCGTGTGAAGAATTGTGGGTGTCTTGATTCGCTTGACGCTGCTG	7930 a.u.
TAGTATTCGATGTGTCTCGTGATGGCTTAATTTCAGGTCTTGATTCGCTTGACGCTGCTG	7310 a.u.
ACCTTAACGCGAAAACGCGTGAAATTGAAATTTAGCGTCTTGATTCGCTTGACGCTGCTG	5530 a.u.
CAAGAAATCGCACTTTACGTGCAAACAAATCAAATGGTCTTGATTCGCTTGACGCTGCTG	5010 a.u.
GTCTTGTCTCATTGTCGCGTGGGTGTCCCCACTTCAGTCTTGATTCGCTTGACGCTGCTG	8290 a.u.
CATACCCAACCTTGATTGGTGGGTGAAGATATTTGTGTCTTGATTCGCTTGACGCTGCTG	3340 a.u.
AAATTACTAAGTTGTCACGTGGGTGACGCCGTATGAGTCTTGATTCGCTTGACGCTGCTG	19300 a.u.
CATGCCTTTTGTTCGTCCGTGACTCGGTCCTTCAATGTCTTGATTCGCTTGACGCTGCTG	4720 a.u.
GCAACACTAGAGTCCCACGTGGAAGCTGGGGTACCCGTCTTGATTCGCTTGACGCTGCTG	15000 a.u.
CGGGGTTAAGTTTGCGCAGTGGGTGGCTTGCAGCAGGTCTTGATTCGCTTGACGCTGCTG	4900 a.u.
CTTTCCCGATCTTGTCACGCAACTTTAGCACATTTGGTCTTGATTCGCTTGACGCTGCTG	5570 a.u.
AAATTACTAAGTTGCTGAGTGGGTGACGCCGTATGAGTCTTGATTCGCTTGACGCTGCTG	4410 a.u.
CAAGAGTTCGCGGTATACGTGCGGACCTAAACGAGGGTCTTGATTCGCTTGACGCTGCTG	7110 a.u.

Some of these lines once more (set 1):
Strand	E-score
CGAACGCG	0.152
GTGCTCAA	0.0549
AGGCTGTG	0.0386
GACTCCCC	-0.0611
TGTGATAA	0.126
